Experimental data gathered from unrelated publications.
Each numbered part is a random draw from the data of one study; scales do not carry over between parts. Values joined by “and” are separate records of one study, mostly repeats; a detail may differ.
Chain of UniProt P23458 (whole entry, looked up): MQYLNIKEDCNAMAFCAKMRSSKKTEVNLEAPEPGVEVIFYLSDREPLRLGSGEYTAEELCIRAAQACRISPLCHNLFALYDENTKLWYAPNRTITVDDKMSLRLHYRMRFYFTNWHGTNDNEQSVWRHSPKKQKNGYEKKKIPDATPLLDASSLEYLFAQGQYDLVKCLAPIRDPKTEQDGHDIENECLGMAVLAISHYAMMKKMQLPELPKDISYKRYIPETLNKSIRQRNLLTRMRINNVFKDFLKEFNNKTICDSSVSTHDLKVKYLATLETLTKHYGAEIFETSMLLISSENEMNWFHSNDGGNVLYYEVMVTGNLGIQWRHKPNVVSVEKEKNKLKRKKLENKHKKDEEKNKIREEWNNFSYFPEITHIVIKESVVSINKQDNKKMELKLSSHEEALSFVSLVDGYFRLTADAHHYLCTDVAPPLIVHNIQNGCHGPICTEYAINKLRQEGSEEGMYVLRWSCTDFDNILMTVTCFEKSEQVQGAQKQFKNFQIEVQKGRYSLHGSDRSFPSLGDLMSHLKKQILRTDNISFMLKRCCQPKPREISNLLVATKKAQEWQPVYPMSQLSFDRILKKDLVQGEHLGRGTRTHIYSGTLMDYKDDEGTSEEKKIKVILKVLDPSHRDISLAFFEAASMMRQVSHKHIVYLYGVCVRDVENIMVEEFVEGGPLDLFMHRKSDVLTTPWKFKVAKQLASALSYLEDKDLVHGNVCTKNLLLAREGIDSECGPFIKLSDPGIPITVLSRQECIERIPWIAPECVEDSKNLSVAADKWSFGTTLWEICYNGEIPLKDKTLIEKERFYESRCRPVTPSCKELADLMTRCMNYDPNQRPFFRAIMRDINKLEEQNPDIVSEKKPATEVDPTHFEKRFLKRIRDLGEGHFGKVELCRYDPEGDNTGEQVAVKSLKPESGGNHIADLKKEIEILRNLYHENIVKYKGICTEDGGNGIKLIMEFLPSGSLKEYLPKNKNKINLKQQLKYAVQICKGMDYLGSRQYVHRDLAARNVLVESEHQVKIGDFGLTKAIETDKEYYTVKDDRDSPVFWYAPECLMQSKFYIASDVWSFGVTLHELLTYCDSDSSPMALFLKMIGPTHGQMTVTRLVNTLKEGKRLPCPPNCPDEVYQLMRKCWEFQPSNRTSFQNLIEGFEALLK
Chain of UniProt P49840 (whole entry, looked up): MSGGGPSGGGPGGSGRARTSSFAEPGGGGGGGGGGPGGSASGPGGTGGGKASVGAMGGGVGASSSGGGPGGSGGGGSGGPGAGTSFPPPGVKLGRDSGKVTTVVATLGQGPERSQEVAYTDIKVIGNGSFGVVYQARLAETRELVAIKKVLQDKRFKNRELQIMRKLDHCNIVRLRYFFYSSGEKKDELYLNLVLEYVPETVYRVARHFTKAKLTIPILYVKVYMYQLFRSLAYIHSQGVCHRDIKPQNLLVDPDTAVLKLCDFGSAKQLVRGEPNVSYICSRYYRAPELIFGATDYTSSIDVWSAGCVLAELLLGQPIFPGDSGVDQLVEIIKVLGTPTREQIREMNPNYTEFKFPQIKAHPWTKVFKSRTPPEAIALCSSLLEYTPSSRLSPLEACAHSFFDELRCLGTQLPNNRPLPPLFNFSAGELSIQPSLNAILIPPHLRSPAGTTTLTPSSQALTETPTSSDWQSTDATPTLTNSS
Chain of UniProt O00141 (whole entry, looked up): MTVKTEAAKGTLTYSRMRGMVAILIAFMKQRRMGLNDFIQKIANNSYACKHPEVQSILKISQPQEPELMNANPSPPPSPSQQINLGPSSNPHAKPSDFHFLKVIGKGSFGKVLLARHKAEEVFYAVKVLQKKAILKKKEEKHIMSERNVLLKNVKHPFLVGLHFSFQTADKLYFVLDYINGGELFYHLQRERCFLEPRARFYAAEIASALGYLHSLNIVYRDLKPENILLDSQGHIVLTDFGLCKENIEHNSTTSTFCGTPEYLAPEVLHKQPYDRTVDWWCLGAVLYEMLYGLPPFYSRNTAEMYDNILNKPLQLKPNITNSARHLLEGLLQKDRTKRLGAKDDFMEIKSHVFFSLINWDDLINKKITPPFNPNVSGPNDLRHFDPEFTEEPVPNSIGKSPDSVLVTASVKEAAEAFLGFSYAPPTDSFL
Chain of UniProt Q9HBY8 (whole entry, looked up): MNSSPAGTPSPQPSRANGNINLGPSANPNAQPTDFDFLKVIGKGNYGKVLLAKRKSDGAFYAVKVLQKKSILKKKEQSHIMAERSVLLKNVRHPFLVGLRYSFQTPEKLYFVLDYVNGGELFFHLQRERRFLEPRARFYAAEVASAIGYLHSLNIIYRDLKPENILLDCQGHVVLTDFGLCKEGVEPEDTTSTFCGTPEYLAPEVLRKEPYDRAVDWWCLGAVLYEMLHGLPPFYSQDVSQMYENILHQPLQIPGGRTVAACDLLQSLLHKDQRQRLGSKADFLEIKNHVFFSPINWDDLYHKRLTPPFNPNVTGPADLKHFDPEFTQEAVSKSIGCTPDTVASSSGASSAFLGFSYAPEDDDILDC
Chain of UniProt Q05513 (whole entry, looked up): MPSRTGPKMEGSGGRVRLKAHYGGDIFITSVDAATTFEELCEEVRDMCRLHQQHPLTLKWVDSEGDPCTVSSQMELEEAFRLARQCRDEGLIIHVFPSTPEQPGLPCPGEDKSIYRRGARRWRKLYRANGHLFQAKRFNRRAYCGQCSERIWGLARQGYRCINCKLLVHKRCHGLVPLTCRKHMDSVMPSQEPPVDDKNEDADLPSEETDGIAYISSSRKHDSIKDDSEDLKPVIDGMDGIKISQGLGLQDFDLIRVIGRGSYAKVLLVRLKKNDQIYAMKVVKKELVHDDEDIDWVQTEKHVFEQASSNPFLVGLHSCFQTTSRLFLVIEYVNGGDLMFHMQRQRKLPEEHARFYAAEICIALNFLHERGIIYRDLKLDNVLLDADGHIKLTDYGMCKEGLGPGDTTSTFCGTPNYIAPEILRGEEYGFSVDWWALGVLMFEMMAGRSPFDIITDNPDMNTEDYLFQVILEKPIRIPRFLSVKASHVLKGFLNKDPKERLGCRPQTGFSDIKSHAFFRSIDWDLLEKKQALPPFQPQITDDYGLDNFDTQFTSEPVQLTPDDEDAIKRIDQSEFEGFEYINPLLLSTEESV
Chain of UniProt Q9UBF8 (whole entry, looked up): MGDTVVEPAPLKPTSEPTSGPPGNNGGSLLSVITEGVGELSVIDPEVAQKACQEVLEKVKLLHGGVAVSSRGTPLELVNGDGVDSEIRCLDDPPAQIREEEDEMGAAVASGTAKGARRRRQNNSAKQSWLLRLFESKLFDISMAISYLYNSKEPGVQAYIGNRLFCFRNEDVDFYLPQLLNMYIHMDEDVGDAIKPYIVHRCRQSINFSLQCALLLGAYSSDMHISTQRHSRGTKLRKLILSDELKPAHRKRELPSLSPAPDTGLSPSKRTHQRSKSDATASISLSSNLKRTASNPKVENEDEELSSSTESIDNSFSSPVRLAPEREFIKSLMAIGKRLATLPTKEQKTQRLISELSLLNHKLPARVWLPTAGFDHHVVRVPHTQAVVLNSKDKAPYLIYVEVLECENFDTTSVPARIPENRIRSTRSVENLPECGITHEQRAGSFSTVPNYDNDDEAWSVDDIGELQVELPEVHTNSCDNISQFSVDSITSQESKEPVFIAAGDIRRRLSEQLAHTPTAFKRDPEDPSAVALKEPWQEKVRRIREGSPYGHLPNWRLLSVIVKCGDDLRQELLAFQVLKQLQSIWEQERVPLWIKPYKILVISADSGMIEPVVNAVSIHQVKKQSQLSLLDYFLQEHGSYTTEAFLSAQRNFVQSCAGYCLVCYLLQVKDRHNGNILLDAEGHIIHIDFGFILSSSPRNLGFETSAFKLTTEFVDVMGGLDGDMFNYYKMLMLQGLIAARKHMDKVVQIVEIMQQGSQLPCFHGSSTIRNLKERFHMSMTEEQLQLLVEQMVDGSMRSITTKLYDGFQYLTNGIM
Chain of UniProt P42680 (whole entry, looked up): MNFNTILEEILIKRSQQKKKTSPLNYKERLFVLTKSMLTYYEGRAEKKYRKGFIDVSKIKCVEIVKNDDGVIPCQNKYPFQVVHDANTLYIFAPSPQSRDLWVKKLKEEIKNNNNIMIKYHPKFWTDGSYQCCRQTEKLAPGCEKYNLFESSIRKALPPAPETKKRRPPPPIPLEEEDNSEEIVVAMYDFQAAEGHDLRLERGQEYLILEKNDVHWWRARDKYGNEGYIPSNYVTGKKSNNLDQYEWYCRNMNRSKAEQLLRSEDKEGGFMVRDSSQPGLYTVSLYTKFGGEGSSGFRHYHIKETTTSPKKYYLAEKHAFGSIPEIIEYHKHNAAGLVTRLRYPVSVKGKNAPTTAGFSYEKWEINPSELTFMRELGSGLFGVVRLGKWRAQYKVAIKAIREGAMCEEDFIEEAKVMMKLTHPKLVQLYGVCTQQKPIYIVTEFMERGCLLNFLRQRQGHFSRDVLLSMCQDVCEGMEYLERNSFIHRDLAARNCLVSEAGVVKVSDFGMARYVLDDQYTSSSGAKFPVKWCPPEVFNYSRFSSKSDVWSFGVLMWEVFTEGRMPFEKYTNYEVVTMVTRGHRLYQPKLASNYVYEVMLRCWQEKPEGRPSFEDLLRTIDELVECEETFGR
Chain of UniProt P48730 (whole entry, looked up): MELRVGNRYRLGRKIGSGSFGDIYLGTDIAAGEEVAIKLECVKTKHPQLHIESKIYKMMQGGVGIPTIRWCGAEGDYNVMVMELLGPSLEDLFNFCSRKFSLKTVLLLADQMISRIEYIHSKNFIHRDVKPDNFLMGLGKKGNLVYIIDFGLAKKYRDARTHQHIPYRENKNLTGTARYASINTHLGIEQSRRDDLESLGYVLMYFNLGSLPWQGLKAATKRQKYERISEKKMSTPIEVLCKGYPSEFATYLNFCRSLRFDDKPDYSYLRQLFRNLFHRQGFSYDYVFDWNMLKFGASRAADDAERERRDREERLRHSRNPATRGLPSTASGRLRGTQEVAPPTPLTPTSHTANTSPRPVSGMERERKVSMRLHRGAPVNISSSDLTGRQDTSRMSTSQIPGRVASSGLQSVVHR

Block 1 — effect on: enzyme activity; mode: inhibitor; concentration: 0.5 µM; reference: control; endpoint: remaining activity
Structure (SMILES): COc1cc(Nc2c(C#N)cnc3cc(OCCCN4CCN(C)CC4)c(OC)cc23)c(Cl)cc1Cl
Dual specificity protein kinase CLK1 (CLK1, Homo sapiens, UniProt P49759): 81%
Calcium/calmodulin-dependent protein kinase type 1 (CAMK1, Homo sapiens, UniProt Q14012): 68.9%
Tyrosine-protein kinase Tec (TEC, Homo sapiens, UniProt P42680): 96.1%
Protein kinase C zeta type (PRKCZ, Homo sapiens, UniProt Q05513): 89.7%
Serine/threonine-protein kinase PAK 1 (PAK1, Homo sapiens, UniProt Q13153): 11.7%
Casein kinase I isoform epsilon (CSNK1E, Homo sapiens, UniProt P49674): 11.4%
Ephrin type-A receptor 6 (EPHA6, Homo sapiens, UniProt Q9UF33): 4.38%
Cyclin-dependent kinase 2, with cyclin E (CDK2, Homo sapiens, UniProt P24941): 98.3%
Vascular endothelial growth factor receptor 1 (FLT1, Homo sapiens, UniProt P17948): 44.5%
Protein kinase C theta type (PRKCQ, Homo sapiens, UniProt Q04759): 71.5%
Casein kinase I isoform delta (CSNK1D, Homo sapiens, UniProt P48730): 10.9%
Serine/threonine-protein kinase PAK 6 (PAK6, Homo sapiens, UniProt Q9NQU5): 105%
Dual specificity protein kinase CLK2 (CLK2, Homo sapiens, UniProt P49760): 69.3%
SRSF protein kinase 1 (SRPK1, Homo sapiens, UniProt Q96SB4): 98.5%
Tyrosine-protein kinase JAK1 (JAK1, Homo sapiens, UniProt P23458): 99%
Serine/threonine-protein kinase Sgk2 (SGK2, Homo sapiens, UniProt Q9HBY8): 103%

Block 2 — host: C57BL/6 CES1-/- mice, EL4 tumour; medium: EL4 tumour; route: subcutaneous; dose: 0.3 mg/kg/day DON equivalent; time: 5 days; endpoint: metabolite peak intensity
SMILES: CC(=O)N[C@@H](Cc1c[nH]c2ccccc12)C(=O)N[C@@H](CCC(=O)C=[N+]=[N-])C(=O)OC(C)C
LC-MS/MS metabolomics, refers to: phosphoenolpyruvate; higher = more metabolite: 278000 a.u. and 273000 a.u. and 132000 a.u. and 515000 a.u. and 244000 a.u. and 281000 a.u.
UPLC-MS/MS metabolomics, refers to: N1-methyl-4-pyridone-3-carboxamide; normalised to tissue mass; higher = more metabolite: 2.29e+06 a.u. and 3.24e+06 a.u. and 2.43e+06 a.u. and 3.56e+06 a.u. and 3.32e+06 a.u. and 2.72e+06 a.u.
UPLC-MS/MS, refers to: 5-hydroxylysine: 1.83e+06 a.u. and 1.63e+06 a.u. and 1.84e+06 a.u. and 1.37e+06 a.u. and 2.36e+06 a.u. and 2.46e+06 a.u.
LC-MS/MS metabolomics, refers to: methionine sulfone; higher = more metabolite: 64500 a.u. and 81300 a.u. and 156000 a.u. and 246000 a.u.
UPLC-MS/MS metabolomics, refers to: guanidinoacetate; normalised to tissue mass: 4.04e+07 a.u. and 2.95e+07 a.u. and 3.13e+07 a.u. and 3.97e+07 a.u. and 6.03e+07 a.u. and 3.38e+07 a.u.

Block 3 — effect on: cell-free assay; technique: competition with immobilised ligand; concentration: 1 µM; endpoint: remaining binding
Compound: Nc1cnc(N2CCc3cc(S(=O)(=O)Nc4c(F)cc(Cl)cc4F)cc(N4CCCC4=O)c32)nc1
Mitogen-activated protein kinase kinase kinase 5 (MAP3K5, Homo sapiens, UniProt Q99683): 83%
ALK tyrosine kinase receptor (ALK, Homo sapiens, UniProt Q9UM73): 100%
Cyclin-dependent kinase 11B (CDK11B, Homo sapiens, UniProt P21127): 100%
Ribosomal protein S6 kinase alpha-5, C-terminal kinase domain (RPS6KA5, Homo sapiens, UniProt O75582): 100%
Serine/threonine-protein kinase Sgk1 (SGK1, Homo sapiens, UniProt O00141): 100%
Ephrin type-B receptor 3 (EPHB3, Homo sapiens, UniProt P54753): 100%
Focal adhesion kinase 1 (PTK2, Homo sapiens, UniProt Q05397): 99%
Megakaryocyte-associated tyrosine-protein kinase (MATK, Homo sapiens, UniProt P42679): 100%
Mitogen-activated protein kinase 4 (MAPK4, Homo sapiens, UniProt P31152): 100%
Phosphatidylinositol 4-kinase beta (PI4KB, Homo sapiens, UniProt Q9UBF8): 93%
Serine/threonine-protein kinase B-raf (BRAF, Homo sapiens, UniProt P15056): 98%
Glycogen synthase kinase-3 alpha (GSK3A, Homo sapiens, UniProt P49840): 100%
Mitotic checkpoint serine/threonine-protein kinase BUB1 (BUB1, Homo sapiens, UniProt O43683): 100%
Ephrin type-B receptor 6 (EPHB6, Homo sapiens, UniProt O15197): 100%
Tyrosine-protein kinase JAK1, JH2 (JAK1, Homo sapiens, UniProt P23458): 93%
Tyrosine-protein kinase ABL1, non-phosphorylated (ABL1, Homo sapiens, UniProt P00519, T315I): 100%

Block 4 — cell line: HaCaT; concentration: 100 µM; time: 18 h; endpoint: viability
CN(C/C=C/c1ccccc1)Cc1cccc2ccccc12: 30.4%
O=C1c2cccc(O)c2C(=O)c2c(O)cc(CO)cc21: 88.9%
OC[C@@H](O)[C@@H](O)[C@H](O)[C@H](O)CO: 110%
C/C(O)=C(\C#N)C(=O)Nc1ccc(C(F)(F)F)cc1: 82%
O=C(NC(Cc1cc(=O)[nH]c2ccccc12)C(=O)O)c1ccc(Cl)cc1 (centres unmarked): 114%
COc1cc2c(cc1O)CC[C@@H]1[C@@H]2CC[C@]2(C)[C@@H](O)CC[C@@H]12: 59%
O=[N+]([O-])c1ccc(O)c2ncccc12: 40.5%
COC(c1ccccc1)(c1ccccc1)[C@H](Oc1nc(C)cc(C)n1)C(=O)O: 114%
C[C@]12CCC(=O)C=C1[C@@H]1C[C@@H]1[C@H]1[C@@H]3[C@@H]4C[C@@H]4[C@@]4(CCC(=O)O4)[C@@]3(C)CC[C@@H]12: 82.7%
CNC[C@H](O)c1cccc(O)c1: 107%

A few entries again (block 1):
Cyclin-dependent kinase 2, with cyclin E (CDK2, Homo sapiens, UniProt P24941): 98.3%
Vascular endothelial growth factor receptor 1 (FLT1, Homo sapiens, UniProt P17948): 44.5%
Protein kinase C theta type (PRKCQ, Homo sapiens, UniProt Q04759): 71.5%
Casein kinase I isoform delta (CSNK1D, Homo sapiens, UniProt P48730): 10.9%
Serine/threonine-protein kinase PAK 6 (PAK6, Homo sapiens, UniProt Q9NQU5): 105%
Dual specificity protein kinase CLK2 (CLK2, Homo sapiens, UniProt P49760): 69.3%
